Results from different studies.
Protocols differ between the studies behind these lines. Numbers after ± are the reported error.
Cell line: Caco-2

| SMILES | assay | setting | how to read | measurement | result |
| --- | --- | --- | --- | --- | --- |
| CC(=O)N[C@H]1[C@H]([C@H](O)[C@H](O)CO)OC(C(=O)O)=C[C@@H]1N=C(N)N | MTT | 300 and 400 µg/mL, 3 h |  | cytotoxicity | not toxic |
| O=C(Nc1c2c(cc3c1CCC3)CCC2)NS(=O)(=O)/C=C/c1nccs1 |  | 2 µM, 120 min, pH 7.4 |  | Papp(B-A) | 10.8 ×10⁻⁶ cm/s |
| C[C@H]1O[C@@H](O[C@H]2[C@@H](O)C[C@H](O[C@H]3[C@@H](O)C[C@H](O[C@H]4CC[C@@]5(C)[C@H](CC[C@@H]6[C@@H]5C[C@@H](O)[C@]5(C)[C@@H](C7=CC(=O)OC7)CC[C@]65O)C4)O[C@@H]3C)O[C@@H]2C)C[C@H](O)[C@@H]1O | transwell permeability | 5 µM, 1 h |  | recovery | 106% |
| O=c1c2cc(Cl)c(CO)cc2[nH]c(=S)n1Cc1cccnc1 |  | 10 µM, 90 min, pH 7.4, 0.1% BSA receiver side |  | Papp (B to A) | 22 ×10⁻⁶ cm/s |
| CC[C@H]1OC(=O)[C@H](C)[C@@H](O[C@H]2C[C@@](C)(OC)[C@@H](O)[C@H](C)O2)[C@H](C)[C@@H](O[C@@H]2O[C@H](C)C[C@H](N(C)C)[C@H]2O)[C@](C)(O)C[C@@H](C)C(=O)[C@H](C)[C@@H](O)[C@]1(C)O |  | 60 min, basolateral to apical |  | mass balance | 106 ± 13.8% |
| N#C[C@@]1(c2ccc3c(N)ncnn23)O[C@H](CO)[C@@H](O)[C@H]1O | bidirectional permeability | 10 µM, 120 min | basolateral to apical | recovery | 102% |
| NS(=O)(=O)c1nnc(NC(=O)C2CCCC3(CCCCC3)C2)s1 (centres unmarked) |  |  |  | Papp B to A | 1.5 ×10⁻⁶ cm/s |
| CC(=O)OCc1cc2[nH]c(=S)n(Cc3cccnc3)c(=O)c2cc1Cl |  | 10 µM, 90 min, pH 7.4, 0.1% BSA receiver side |  | Papp (B to A) | 0.1 ×10⁻⁶ cm/s |
| CCOc1cc(C(C)(C)C)ccc1C1=N[C@@H](c2ccc(Cl)cc2)[C@@H](c2ccc(Cl)cc2)N1C(=O)N1CCN(CC(=O)NCCOCCOCCOCCNC(=O)CN2CCN(C(=O)N3C(c4ccc(C(C)(C)C)cc4OCC)=N[C@@H](c4ccc(Cl)cc4)[C@H]3c3ccc(Cl)cc3)CC2=O)C(=O)C1 (relative stereo) |  | 10 µM, 2 h, 37 °C |  | Papp B to A | 0.02 ×10⁻⁶ cm/s |
| CC[C@@H]1C(=O)N(C)c2cnc(Nc3ccc(C(=O)NC4CCN(C)CC4)cc3OC)nc2N1C1CCCC1 |  | 10 µM, 2 h |  | Papp A-B | > 1 ×10⁻⁶ cm/s |
| COc1nc(NCc2cn(-c3ccc(C(=O)Nc4ccc(Cl)cc4)cc3)nn2)nc(OC)n1 | MTT |  | relative to: normal rat colonocytes over Caco-2 | selectivity ratio | 0.19 |
| CN(C)C/C=C/C(=O)Nc1cc2c(Nc3ccc(F)c(Cl)c3)ncnc2cc1O[C@H]1CCOC1 |  | 100 µM, 3 h |  | Papp A-B | ~2.6 ×10⁻⁶ cm/s |
| CCOc1nc(-c2cccc(O)c2)cc(-c2cc3ccccc3nc2N2CCOCC2)c1C#N | MTT | 72 h, 10% FBS | relative to: WI-38 EC50 over Caco-2 IC50 | selectivity ratio | 0.27 |
| C#Cc1c(F)ccc2cc(O)cc(-c3ncc4c(N5CC6CCC(C5)N6)nc(OC[C@@]56CCCN5C[C@H](F)C6)nc4c3F)c12 |  | no inhibitor, BCRP (novobiocin) set |  | Papp (B to A) | 7.84 ×10⁻⁶ cm/s |
| C[C@H]1CN(C)CCN1c1nccc(-c2noc3c2CCC[C@@]32CCCc3sc(N)c(C#N)c32)n1 |  |  |  | Papp (A to B) | 20 ×10⁻⁶ cm/s |
| CC(=O)CC(c1ccccc1)c1c(O)c2ccccc2oc1=O (centres unmarked) |  | 10 µM, 2 h |  | Papp A-B | > 1 ×10⁻⁶ cm/s |
| C[C@@H]1CCN(C(=O)CC#N)C[C@@H]1N(C)c1ncnc2[nH]ccc12 |  | 5 µM, 120 min |  | Papp B-A | 20.3 ×10⁻⁶ cm/s |
| C[C@]12CC[C@@H]3c4ccc(OS(=O)(=O)O)cc4CC[C@H]3[C@@H]1CCC2=O |  | no inhibitor, BCRP (novobiocin) set |  | Papp (A to B) | 0.367 ×10⁻⁶ cm/s |
| NS(=O)(=O)c1nnc(NC(=O)CCC2CCC(F)(F)CC2)s1 |  |  |  | Papp A to B | 1 ×10⁻⁶ cm/s |

| SMILES | assay | setting | how to read | measurement | result |
| --- | --- | --- | --- | --- | --- |
| CCOc1cc(-c2nncn2C)ccc1Nc1ncc2cc(C)nc(NCC(C)(C)C)c2n1 |  | 10 µM |  | Papp(A-B) | 6.71 ×10⁻⁶ cm/s |
| CCCCCOC(=O)c1ccc(O)cc1 |  | 5 µM, 60 min, A-B direction |  | hydrolysed compound | 35.8 ± 2% |
| COc1nc(NCc2cn(-c3ccc(NC(=O)c4ccccc4)cc3)nn2)nc(OC)n1 | MTT |  | relative to: normal rat colonocytes over Caco-2 | selectivity ratio | 0.07 |
| C=C(F)C(=O)N1CCN(c2nc(OC[C@@H]3CCCN3C)nc3c2CCN(c2cccc4cccc(Cl)c24)C3)C[C@@H]1CC#N |  | 13.2 µM |  | apparent permeability | 6.84 ×10⁻⁶ cm/s |
| Cc1ccc(NC(=O)c2ccc(P(C)(C)=O)cc2)cc1Nc1nccc(-c2cccnc2)n1 |  |  |  | Papp(A-B) | 0.1 ×10⁻⁶ cm/s |
| O=C(Nc1ccc(CN2CCOCC2)c(C(F)(F)F)c1)c1ccc(C#Cc2cccc3cnccc23)cn1 |  | 5 µM, 120 min, B-to-A, basolateral dosing |  | recovery | 92.9% |
| CC(C)NCC(O)COc1cccc2ccccc12 (centres unmarked) |  | 5 µM, 2 h, apical to basolateral |  | recovery | 66.8% |
| CC(C)NCC(O)COc1cccc2ccccc12 (centres unmarked) |  | 2 µM, 120 min, pH 7.4 |  | Papp(A-B) | 16.9 ± 0.645 ×10⁻⁶ cm/s |
| Nc1n[nH]c2nc(-c3cccc(O)c3)cc(-c3cc4cc(Cl)ccc4nc3N3CCOCC3)c12 | MTT | 72 h, 10% FBS | relative to: WI-38 EC50 over Caco-2 IC50 | selectivity ratio | 0.696 |
| C=CC(=O)N(C)CCOc1c(N)ncnc1-c1cc(F)cc(NC(=O)c2ccc(C3CC3)cc2F)c1C |  | 100 µg/mL, passive permeability with efflux inhibitors |  | Papp | 17 ×10⁻⁶ cm/s |
| C[C@H]1O[C@@H](O[C@H]2[C@@H](O)C[C@H](O[C@H]3[C@@H](O)C[C@H](O[C@H]4CC[C@@]5(C)[C@H](CC[C@@H]6[C@@H]5C[C@@H](O)[C@]5(C)[C@@H](C7=CC(=O)OC7)CC[C@]65O)C4)O[C@@H]3C)O[C@@H]2C)C[C@H](O)[C@@H]1O |  | 5 µM, 2 h, apical to basolateral |  | recovery | 87% |
| CC[C@H](C)C(=O)N1CCC(NC(=O)Nc2ccc(OC(F)(F)F)c(F)c2)CC1 | Caco-2 permeability | 10 µM, 60 min, pH 7.4 apical, 7.4 basolateral, mean | apical to basolateral | percent recovery | 47% |
| CCCCCCCOC(=O)c1ccc(O)cc1 |  | 5 µM, 60 min, A-B direction |  | hydrolysed compound | 26.2 ± 0.7% |
| COc1nc(NCc2cn(-c3ccc(NC(=O)c4ccc([N+](=O)[O-])cc4)cc3)nn2)nc(OC)n1 | MTT |  | relative to: normal rat colonocytes over Caco-2 | selectivity ratio | 0.01 |
| CC(C)(C)OC(=O)c1ccc(O)cc1 |  | 5 µM, 60 min, A-B direction |  | hydrolysed compound | 1.1 ± 0.1% |
| COc1nc(NCc2cn(-c3ccc(C(N)=O)cc3)nn2)nc(OC)n1 | MTT |  | relative to: normal rat colonocytes over Caco-2 | selectivity ratio | 0.02 |
| Cc1ccc2[nH]c(=S)n(Cc3cccnc3)c(=O)c2c1 |  | 10 µM, 90 min, pH 7.4, 0.1% BSA receiver side |  | Papp (B to A) | 29.6 ×10⁻⁶ cm/s |
| C=CC(=O)Nc1cc(Nc2nccc(-c3cn(C)c4ccccc34)n2)c(OCC(F)(F)F)nc1N(C)CCN(C)C |  |  |  | intestinal permeability | 0.53 ×10⁻⁶ cm/s |
| COc1nc(NCc2cn(-c3ccc(NC(=O)c4ccc(C(F)(F)F)cc4)cc3)nn2)nc(OC)n1 | MTT |  | relative to: normal rat colonocytes over Caco-2 | selectivity ratio | 0.12 |
